Published values of several laboratories.
Compare with care: the assays were run in different laboratories. Numbers after ± are the reported error.
Replicase polyprotein 1ab main protease: Replicase polyprotein 1ab, main protease (Human coronavirus OC43, UniProt P0C6X6)
Dihydrolipoyl dehydrogenase: Dihydrolipoyl dehydrogenase (Mycobacterium tuberculosis, UniProt P9WHH9)
Genome polyprotein protease: Genome polyprotein, protease (Coxsackievirus B3, UniProt P03313)
rep main protease: Replicase polyprotein 1ab, main protease (rep, Human coronavirus HKU1, UniProt P0C6X2)
DNA ligase: DNA ligase (Enterobacteria phage T4, UniProt P00970)

N#Cc1c(N)nc(SCc2ncc[nH]2)c(C#N)c1-c1ccc(O)cc1 — IC50 (ADORA2A (Homo sapiens, UniProt P29274); binding): 0.115 µM
CCOCC1C(c2ccc(Cl)c(Cl)c2)CC2CCC1N2C (stereo not shown) — IC50 (SLC6A3 (Homo sapiens, UniProt Q01959); inhibitor): 0.00912 µM
CSCC[C@@H](C=O)NC(=O)[C@H](CC(C)C)NC(=O)[C@H](CC(C)C)NC(C)=O — IC50 (Replicase polyprotein 1ab main protease; enzyme activity, inhibitor): 0.56 µM
COc1cc(N2CCN(C)CC2)ccc1Nc1ncc2c(n1)N(C1CCC1)C(=O)N(c1c(C)cccc1C)C2 — IC50 (SIK3 (Homo sapiens, UniProt Q9Y2K2); enzyme activity, inhibitor): > 0.02 µM
CC1C(=NOCc2cc(-c3ccc(Cl)cc3)no2)C(C)C(c2ccc(Cl)cc2)OC1c1ccc(Cl)cc1 (stereo not shown) — IC50 (DNA gyrase subunit A/DNA gyrase subunit B (Mycobacterium tuberculosis, UniProt P9WG45+P9WG47)): 18.7 µM
C=CC(=O)NC(CC(=C)C)C(=O)N1CC(C(=O)NC(C(=O)NC)C(C)CC)C(c2cccc(C(F)(F)F)c2)C1 (stereo not shown) — IC50 (Replicase polyprotein 1ab main protease): > 100 µM
C#CCCNC(=O)[C@@H](NC(=O)N[C@H](C(=O)N[C@H]1/C=C/CCNC(=O)/C=C/[C@H](C(C)C)NC1=O)C(C)C)C(C)C — IC50 (Proteasome subunit beta type-9 (Mus musculus, UniProt P28076); inhibitor): 0.022 µM
Cc1cnc(N)c(S(=O)(=O)N(C)CC(=O)Nc2ccc(OCCN(C)C)c(Cl)c2)c1 — IC50 (Dihydrolipoyl dehydrogenase; enzyme activity, inhibitor; with: 50 nM enzyme): 0.11 µM
C=C1CC(COc2ccc3c(C)cc(=O)oc3c2)(c2ccccc2)OC1=O (stereo not shown) — IC50 (Adenosylmethionine-8-amino-7-oxononanoate aminotransferase (Mycobacterium tuberculosis, UniProt P9WQ81); inhibitor, biochemical): 28.9 ± 4.11 µM
COc1ccccc1/N=C/c1nc(-c2ccccc2)oc1OC(C)=O — IC50 (Genome polyprotein protease; enzyme activity, inhibitor): > 50 µM
Cc1cnc(N)c(S(=O)(=O)N(C)CC(=O)Nc2ccn(C)c(=O)c2)c1 — IC50 (Dihydrolipoyl dehydrogenase; enzyme activity, inhibitor; with: 50 nM enzyme): 0.165 µM
CC[C@H](C)[C@H](NC(=O)[C@H](CO)NC(=O)[C@H](Cc1ccc(O)cc1)NC(=O)[C@H](CC(=O)O)NC(=O)[C@H](CO)NC(=O)[C@@H](NC(=O)[C@H](Cc1ccccc1)NC(=O)[C@@H](NC(=O)CNC(=O)[C@@H]1CCCN1C(=O)[C@H](C)NC(=O)[C@@H](N)Cc1ccc(O)cc1)[C@@H](C)O)[C@@H](C)CC)C(=O)N[C@@H](C)C(=O)N[C@@H](CCSC)C(=O)N[C@@H](CC(=O)O)C(=O)N[C@@H](CCCCN)C(=O)N[C@H](C(=O)N[C@@H](CCCNC(=N)N)C(=O)N[C@@H](CCC(N)=O)C(=O)N[C@@H](CCC(N)=O)C(=O)N[C@@H](CC(=O)O)C(=O)N[C@@H](Cc1ccccc1)C(=O)N[C@H](C(=O)N[C@@H](CC(N)=O)C(=O)N[C@@H](Cc1c[nH]c2ccccc12)C(=O)N[C@@H](CC(C)C)C(=O)N[C@@H](CC(C)C)C(=O)N[C@@H](C)C(=O)N[C@@H](CCC(N)=O)C(=O)N[C@@H](CCCNC(=N)N)C(=O)NCC(=O)N[C@@H](CCCCN)C(=O)N[C@@H](CCCCN)C(=O)N[C@@H](CO)C(=O)N[C@@H](CC(=O)O)C(=O)N[C@@H](Cc1c[nH]c2ccccc12)C(=O)N[C@@H](CCCCN)C(=O)N[C@@H](Cc1c[nH]cn1)C(=O)N[C@@H](CC(N)=O)C(=O)N[C@H](C(=O)N[C@H](C(=O)N[C@@H](CCC(N)=O)C(=O)O)[C@@H](C)O)[C@@H](C)CC)C(C)C)[C@@H](C)CC — IC50 (Gastric inhibitory polypeptide receptor (Mus musculus, UniProt Q0P543); 4 h, 4 °C): 0.00501 µM
C=C(C)C1C2OC(=O)C1C1(O)CC3OC34C(=O)OC2C14C (stereo not shown) — IC50 (GABA-A receptor; GABA-A site (alpha1/beta2 interface) (Homo sapiens, UniProt P14867+P47870); ion current, antagonist, two-electrode voltage clamp; oocytes): 2.23 µM
Cc1cnc(N)c(S(=O)(=O)N(C)CC(=O)Nc2ccc(=O)n(C)c2)c1 — IC50 (Dihydrolipoyl dehydrogenase; enzyme activity, inhibitor; with: 50 nM enzyme): 2.75 µM
CC(C)c1nc2cc(O)ccc2c(=O)n1-c1ccc(C#N)cc1 — IC50 (TRPV1 (Homo sapiens, UniProt Q8NER1); calcium signal, antagonist, fluorescence): 0.35 µM
COc1cc(CN2CCN(C)CC2)ccc1Nc1ncc2c(n1)N(C13CC4CC(CC(C4)C1)C3)C(=O)N(c1c(C)cccc1C)C2 — IC50 (SIK1 (Homo sapiens, UniProt P57059); enzyme activity, inhibitor): > 0.5 µM
C=CC(=O)N1CCN(c2cc(-c3ccc(C4CCC4)cc3)ncc2C(=O)N[C@H](Cc2ccccc2)C(=O)NC)C(C)C1 (stereo partly shown) — IC50 (rep main protease): > 100 µM
CC1(C)O[C@H]2OC(CNCCCCCCCCCCCCNCC3O[C@@H]4OC(C)(C)O[C@@H]4[C@H]3OCc3ccccc3)[C@H](OCc3ccccc3)[C@H]2O1 (stereo partly shown) — IC50 (DNA ligase; enzyme activity, inhibitor, radiometric): 8 µM
C[n+]1ccc(C(=O)NCc2ccccc2)c(O)c1 — IC50 (RNA-directed RNA polymerase catalytic subunit (PB1, Influenza A virus, UniProt P03430); polymerase activity, inhibitor, FLUPOL; Influenza A virus A/WSN/33 (H1N1)): 840 µM
CC1(C)OC2OC(C(CCO)NCCCCCCCCCCNC(CCO)C3OC4OC(C)(C)OC4C3OCc3ccccc3)C(OCc3ccccc3)C2O1 (stereo not shown) — IC50 (DNA ligase; enzyme activity, inhibitor, radiometric): 40 µM
C=CC(=O)NC(CC(=C)C)C(=O)N1CC(C(=O)NC(CCSC)C(=O)NC)C(c2cccc(C(F)(F)F)c2)C1 (stereo not shown) — IC50 (rep main protease): > 100 µM
O=C1C=CC(=O)c2cn(Cc3ccccc3)cc21 — IC50 (Genome polyprotein protease; enzyme activity, inhibitor): > 50 µM

A few entries again:
Cc1cnc(N)c(S(=O)(=O)N(C)CC(=O)Nc2ccc(OCCN(C)C)c(Cl)c2)c1 — IC50 (Dihydrolipoyl dehydrogenase; enzyme activity, inhibitor; with: 50 nM enzyme): 0.11 µM
C=C1CC(COc2ccc3c(C)cc(=O)oc3c2)(c2ccccc2)OC1=O (stereo not shown) — IC50 (Adenosylmethionine-8-amino-7-oxononanoate aminotransferase (Mycobacterium tuberculosis, UniProt P9WQ81); inhibitor, biochemical): 28.9 ± 4.11 µM
